Assay results from different studies.
Lines come from different studies, so protocols differ. Values joined by “and” are separate records of one study, mostly repeats; a detail may differ. Numbers after ± are the reported error.

With `CCCCCC(O)/C=C/C=O` (stereo not shown) the IC50 was 72 µM and 79 µM and 88 µM and 93 µM and 64 µM and 91 µM and 61 µM (proteome cysteines; IA-probe labelling, competitive isoTOP-ABPP; MDA-MB-231 proteome).
With `O=C(Nc1ccccc1)c1ccc(Nc2nnc(-c3ccc(O)cc3)c3ccccc23)cc1` the licking time was 0 s (TRPV1; nocifensive response; mouse; intraplantar, 3 µg).
For `CC(=O)NCC1CCCCN1c1nc(N(C)CCc2ncc(C)s2)nc(N2CC3C(CCOc4cc(-c5scnc5C)ccc4CNC(=O)[C@@H]4C[C@@H](O)CN4C(=O)[C@@H](NC(=O)C4(F)CC4)C(C)(C)C)C3C2)n1` (stereo partly shown), the cooperativity alpha was 220 (VHL-elongin C-elongin B and BRD9; SPR; immobilized VHL-elongin C-elongin B; reference: binary KD over ternary KD).
`O=C(N/N=C/c1ccc2c(ccc[n+]2Cc2ccccc2)c1)c1cncc(C(=O)N/N=C/c2ccc3c(ccc[n+]3Cc3ccccc3)c2)n1` has a ΔTm of 2.5 ± 0.1 °C (hp2 hairpin duplex DNA; FRET melting; 1 µM).
`C=CC(=O)Nc1cccc(Cn2ncc3cnc(Nc4cnn(CCOC)c4)nc32)c1`: “percent of control” 100% (MST1R human; binding, KINOMEscan; 100 nM; lower = stronger binding).
`c1ccc(-c2n[nH]cc2-c2ccnc3ccccc23)nc1`: “log2 fold change” -0.46 (KIN28 (Candida albicans); kinase binding, MIB/MS competition; Candida albicans lysate; 1 µM; reference: DMSO).
With `O=C(N/N=C/c1cc[n+](CC2CC2)c2ccccc12)C(=O)N/N=C/c1cc[n+](CC2CC2)c2ccccc12` the ΔTm was 3.1 ± 0.7 °C (MYC parallel G4 DNA; FRET melting; 1 µM, DNA 0.2 µM).
The remaining binding of `Nc1ncc(-c2cc(-c3cnn(CC(F)(F)F)c3)ncc2F)nc1C(=O)NC1CNCC(F)C1` (stereo not shown) is reported as 100% (EIF2AK1; KINOMEscan; 1 µM; reference: DMSO control).
`O=C(N/N=C/c1ccc2c(ccc[n+]2Cc2ccccc2)c1)c1cc(C(=O)N/N=C/c2ccc3c(ccc[n+]3Cc3ccccc3)c2)ncn1` has a ΔTm of 1.4 ± 1.1 °C (hp2 hairpin duplex DNA; FRET melting; 1 µM).
With `CCNC(=S)NN=Cc1c2ccccc2cc2ccccc12.Cc1ccc(C(C)C)cc1.[Cl-].[Cl-].[Ru+2]` the binding constant was 282000 M⁻¹ (calf thymus DNA; ethidium bromide displacement; 308 K).
For `Cc1cn(CC(=O)N(CC(=O)N[C@H]2CCC[C@@H]2N(CC(=O)N[C@H]2COC[C@@H]2N(CC(=O)N[C@H]2COC[C@@H]2N(CC(=O)N[C@H]2COC[C@@H]2N(CC(=O)NCCOCCOCC(N)=O)C(=O)Cn2cnc3c(N)ncnc32)C(=O)Cn2cc(C)c(=O)[nH]c2=O)C(=O)Cn2cnc3c(N)ncnc32)C(=O)Cn2cnc3c(=O)[nH]c(N)nc32)[C@H]2CCC[C@@H]2NC(=O)CN(C(=O)Cn2cnc3c(=O)[nH]c(N)nc32)[C@H]2CCC[C@@H]2NC(=O)CN(C(=O)Cn2cc(C)c(=O)[nH]c2=O)[C@H]2COC[C@@H]2NC(=O)CN(C(=O)Cn2cnc3c(N)ncnc32)[C@H]2COC[C@@H]2NC(=O)CN(C(=O)Cn2cnc3c(=O)[nH]c(N)nc32)[C@H]2COC[C@@H]2N)c(=O)[nH]c1=O`, the ΔTm was -13.8 °C (mismatched RNA TG; duplex formation, UV melting; reference: complementary RNA).
The relative co-enrichment of `C=CC(=O)N1[C@@H](c2ccc3c(c2)OCO3)c2[nH]c3ccccc3c2C[C@H]1C(=O)N1CCN(C)CC1` is reported as 76% (human cyclin E1 wild type-3xFLAG:CDK2; co-IP with TMT proteomics, refers to: DDX3X; concentration not given, O00571; reference: wild type DMSO).
`C[n+]1ccc(/C=N/NC(=O)N/N=C/c2cc[n+](C)c3ccccc23)c2ccccc21` has a ΔTm of 2.9 ± 0.9 °C (MYC parallel G4 DNA; FRET melting; 1 µM, DNA 0.2 µM).
The inhibition of `C=CC(=O)Nc1cc(-c2nn(C3CCN(CCNC(=O)[C@H](C)CCC45CC6CC(CC(C6)C4)C5)CC3)c3ncnc(N)c23)ccc1Oc1ccccc1` is reported as 15.5% (Aurora kinases A, B and C; KiNativ profiling; 2 µM).
The ΔTm of `O=C(N/N=C/c1ccc(C[n+]2ccccc2)cc1)C(=O)N/N=C/c1ccc(C[n+]2ccccc2)cc1` is reported as 3.1 ± 0.6 °C (MYC parallel G4 DNA; FRET melting; 1 µM, DNA 0.2 µM, together with: duplex DNA competitor 10 µM).
The melting temperature of `CC(=O)NCCN(CCC(=O)NCCN(CCC(=O)NCCN(CCC(=O)NCCC(N)=O)C(=O)[C@@H](N)Cc1ccccc1)C(=O)[C@@H](N)CCCNC(=N)N)C(=O)[C@@H](N)CCCNC(=N)N` is reported as 60.1 ± 0.2 °C (HIV-1 TAR RNA; RNA thermal stability, UV melting; 1 µM, pH 7.5, together with: 1 µM TAR RNA).
The sphingomyelin level of `CCCCCCc1cccc([C@H](O)C[C@H](CO)NC(=O)CCCCCCCCCCBr)c1` is reported as 519000 pmol and 645000 pmol and 636000 pmol (CERT; HPLC-MS/MS, refers to: SM C16; HeLa; 1 µM, 24 h).
For `C[n+]1ccc(/C=N/NC(=O)c2cc(C(=O)N/N=C/c3cc[n+](C)c4ccccc34)ncn2)c2ccccc21`, the ΔTm was 0.3 ± 0.3 °C (hp2 hairpin duplex DNA; FRET melting; 1 µM, together with: ds26 10 µM).
`O=C(CCCCCOc1ccc2ccccc2c1)N[C@@H](CO)C[C@@H](O)c1ccc(-c2ccccc2)cc1` has a sphingomyelin level of 958000 pmol/sample and 944000 pmol/sample and 866000 pmol/sample (CERT; HPLC-MS/MS, refers to: total sphingomyelin; HeLa; 1 µM, 24 h).
`C[n+]1ccc(/C=N/NC(=O)C(=O)N/N=C/c2cc[n+](C)c3ccccc23)c2ccccc21` has a ΔTm of 3.5 ± 0.3 °C (MYC parallel G4 DNA; FRET melting; 1 µM, DNA 0.2 µM, together with: duplex DNA competitor 10 µM).
`CC(=O)NCCN(c1nc(N2CC(Oc3ccccc3)C2)nc(N2CC3C(CCOc4cc(-c5scnc5C)ccc4CNC(=O)[C@@H]4C[C@@H](O)CN4C(=O)[C@@H](NC(=O)C4(F)CC4)C(C)(C)C)C3C2)n1)C(C)C` (stereo partly shown) gave a cooperativity alpha of 527 (VHL-elongin C-elongin B and BRD9; SPR; immobilized VHL-elongin C-elongin B; reference: binary KD over ternary KD).
With `Fc1ccc(Nc2nc(NC3CCCCC3)c3cc(C(F)(F)F)ccc3n2)cc1F` the pIC50 was 7 (β2AR/β1AR ECL2/3 chimera; β-arrestin2 recruitment, antagonist, BRET; together with: isoprenaline 1 µM).

A few entries again:
With `O=C(Nc1ccccc1)c1ccc(Nc2nnc(-c3ccc(O)cc3)c3ccccc23)cc1` the licking time was 0 s (TRPV1; nocifensive response; mouse; intraplantar, 3 µg).
For `CC(=O)NCC1CCCCN1c1nc(N(C)CCc2ncc(C)s2)nc(N2CC3C(CCOc4cc(-c5scnc5C)ccc4CNC(=O)[C@@H]4C[C@@H](O)CN4C(=O)[C@@H](NC(=O)C4(F)CC4)C(C)(C)C)C3C2)n1` (stereo partly shown), the cooperativity alpha was 220 (VHL-elongin C-elongin B and BRD9; SPR; immobilized VHL-elongin C-elongin B; reference: binary KD over ternary KD).
